Measured values pooled from the literature.
A part holds a random share of what one study measured. Changes are numbered by the printed parent chain.

Series 1 — technique: protein-binding microarray; form: double-stranded DNA, one strand shown; medium: in vitro; tested at: 2540 nM top; notes: 60-bp whole probe; with: salmon DNA 0.4 mg/ml; reference: random background probes; direction: higher = stronger binding; shared flanks, not repeated: GCCTAGCAC … GTCTTGATTCGCTTGACGCTGCTG
Target: Interferon regulatory factor 3, full length, phosphomimetic (IRF3, Homo sapiens, UniProt Q14653, residues 1-427, S386D/S396D/S398D/S402D/T404D/S405D)
Sequence of UniProt Q14653 (whole entry, unmodified, looked up): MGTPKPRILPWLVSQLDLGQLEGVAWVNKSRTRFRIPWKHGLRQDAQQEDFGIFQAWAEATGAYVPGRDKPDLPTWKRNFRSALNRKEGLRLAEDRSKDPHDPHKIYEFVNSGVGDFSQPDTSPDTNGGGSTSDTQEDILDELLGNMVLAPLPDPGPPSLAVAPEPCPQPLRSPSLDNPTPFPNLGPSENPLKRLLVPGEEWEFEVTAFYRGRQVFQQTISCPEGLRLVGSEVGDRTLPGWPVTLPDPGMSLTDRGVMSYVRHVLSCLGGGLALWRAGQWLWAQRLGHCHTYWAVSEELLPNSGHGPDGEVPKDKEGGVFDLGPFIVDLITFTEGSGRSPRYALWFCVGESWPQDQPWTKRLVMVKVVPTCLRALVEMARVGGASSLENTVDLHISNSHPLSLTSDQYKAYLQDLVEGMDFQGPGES
Oligonucleotide	fitted relative affinity [z-score]
TCAATGATCCAGTTTTACACTGTGCTA	0.443
CCCGTTCACCCACGACCCTTGTGCTAG	1.33
GACGGTATCCTTATTCTGACGTGCTAG	5.06
GACGGACTGGGTTATCGGGACGTGCTA	-0.609
TTAGGACTGGGTATGGGTTAGTGCTAG	-0.933
TTAGGTCTCGGTTTCGGTGAGTGCTAG	4.32
TTGGGTTTCGGACTGGGTTAGTGCTAG	3.05
TCAATTCGTCATTTCACACTGTGCTAG	1.12

Series 2 — technique: RNA Bind-n-Seq; form: RNA; medium: in vitro; tested at: 365 nM; reference: no-protein control; direction: higher = stronger binding
Target: RNA binding protein fox-1 homolog 2, RRM domain, GST-SBP tag (RBFOX2, Homo sapiens, UniProt O43251-10, residues 100-194)
Notes: natural RNA segment, single round, ends assumed
Shared flanks, not repeated: GGGAGUUCUACAGUCCGACGAUC … UGGAAUUCUCGGGUGCCAA
Residues (chain): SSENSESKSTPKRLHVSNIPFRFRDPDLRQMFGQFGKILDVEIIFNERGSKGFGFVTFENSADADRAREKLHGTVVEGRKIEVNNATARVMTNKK
Oligonucleotide	RBNS enrichment (R)
GGAGUGAUUCCUAGAAGACGGAUCAGUCUAGUCUGGCAGUCAAGGCUCAGGAGUUUGGGAGAGGGGCAGGAGAAGGAUAAGAAAGCCUGGGUUUUAGGCUUGCCUGGGAA	0.879
UACUUAUUCAAAAAAAUCCUAGAGAUUCUUAGCUCUUGGGAUGCAGGCUCAGCCCGCUGGAGCAUGAGCUCUGUGUGUACCGAGAACUGGGGUGAUGUUUUACUUUUCAC	0.342
AGAUGGUCUUUCUGUGGAGAAUUUGUGGAACUUUAGUGUGGAGAACAAAGAAGGAGUUGGAGAUGAAAAAGUGGUACUGUGUCAAGGGAAGAUUUUUGUGAGUUUUCCAU	1.49
AUCUUUUAACUAGUGUUUCACAAGGAUCCUCUGAAACCCUCUCUGUGCCCCAAGUACAGAUGCCAUUACUUCUGCUUUCGUAUCUCCUCAGGCAAAAGUGGAGGGUGCCU	0.261
CUGGGCAAGGCUGGAGGUACUGUAGAGAAUCCAGCUUGGGCCACUGCUUCCAUGUAGAGAAGUGGGACAGCAGGCCCUCCUUGGAGUUUCUGCACAGGUUUAGGUGAGUA	0.511
GCUGCCCGGACACCACGUAAACAUAACACUAAAGAAACUGUCCUGGAGAUCCCAUCCUGCUACUAAGAAGUUUUCUGUACAUCACUUCCAAACAUUGGAAACUUUCAGAU	0.606
UUUACGACACUAACAGGACUGCAUAGAGGCUUUUUCAGCAUUACUGUAUUGUCUCCGGCCACACUGGCAAGAUCAUCAUUAGAAAUGGAAAUGACAUUUGAAAGCCAUUA	0.346
CAGAGCUCUGACCUCAUCAAACACCAGCGCACGCAUACAGGCGAGCGGCCCUACAAGUGUCCCAGGUGCGGCAAGGCCUUCGCUGAUAGCUCUUACCUACUCCGCCACCA	0.748

Series 3 — technique: aptamer microarray, sandwich; form: DNA with 2'F-ANA; medium: in vitro; tested at: 200 nM; with: Cy3 exosite-II aptamer, 400 nM; direction: higher = stronger binding; oligonucleotide: GGTTGGTGTGGTTGG
Target: Prothrombin, mature alpha-thrombin (F2, Homo sapiens, UniProt P00734)
Notes: whole 15-mer aptamer, many near background
Modification	mean fluorescence intensity [a.u.]
2'F-ANA at 1 2 3 5 6 7 9 11 12 13 15	74.4
2'F-ANA at 1 3 4 5 13 14	42.5
2'F-ANA at 4 5 11 14	42.1
2'F-ANA at 1 2 4 5 6 8 9 10 11 12 13 15	48
2'F-ANA at 3 8 10 11 13 14 15	336
2'F-ANA at 2 3 5 10 11 13 14	50.8
2'F-ANA at 2 6 7	415
2'F-ANA at 2 3 4 7 9 11	533

Single results of other studies — parent: viral docking peptide; TSVRRALFTGGSD
Change	target	assay	test system	setting	how to read	measurement	result
TSVRRALFTGYSD [G11Y]	CCNF, cyclin fold, Cln2 fusion (human)	yeast growth competition, sequencing	yeast	strong parent motif	reference: not given, higher = stronger binding	normalised enrichment score	8.26

Some of these lines once more (series 3):
Modification	mean fluorescence intensity [a.u.]
2'F-ANA at 3 8 10 11 13 14 15	336
2'F-ANA at 2 3 5 10 11 13 14	50.8
2'F-ANA at 2 6 7	415
